Results gathered from unrelated publications.
Lines come from different studies, so protocols differ.
PRKAA1: 5'-AMP-activated protein kinase catalytic subunit alpha-1 (PRKAA1, Homo sapiens, UniProt Q13131)
Sequence of UniProt Q13131 (whole entry, looked up): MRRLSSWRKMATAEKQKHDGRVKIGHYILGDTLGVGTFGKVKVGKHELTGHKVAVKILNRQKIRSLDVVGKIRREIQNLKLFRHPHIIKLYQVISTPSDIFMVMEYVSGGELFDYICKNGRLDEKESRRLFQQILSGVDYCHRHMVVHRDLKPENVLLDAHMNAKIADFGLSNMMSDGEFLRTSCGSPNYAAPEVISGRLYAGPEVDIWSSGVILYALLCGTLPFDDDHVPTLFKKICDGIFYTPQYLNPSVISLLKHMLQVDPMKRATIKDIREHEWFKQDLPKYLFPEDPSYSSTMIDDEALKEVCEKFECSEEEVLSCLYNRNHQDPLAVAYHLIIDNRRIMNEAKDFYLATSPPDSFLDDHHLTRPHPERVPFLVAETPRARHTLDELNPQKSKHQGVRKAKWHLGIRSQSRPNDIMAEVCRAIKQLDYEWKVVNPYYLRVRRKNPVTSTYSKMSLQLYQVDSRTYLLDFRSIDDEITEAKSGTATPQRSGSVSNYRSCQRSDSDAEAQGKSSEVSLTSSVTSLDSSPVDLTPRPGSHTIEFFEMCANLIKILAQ
PRKAA1 with beta1, gamma1: 5'-AMP-activated protein kinase catalytic subunit alpha-1, with beta1, gamma1 (PRKAA1, Homo sapiens, UniProt Q13131)

With Cc1cnc(NC2CCOCC2)nc1-n1cnc(C(=O)NC(CN)c2cc(F)cc(Cl)c2)c1 (stereo not shown) the remaining activity was 34% (PRKAA1; radiometric; 1 µM).
With Cc1cc(NC(=O)c2cccc3cc(-c4cccc5[nH]nc(N)c45)ccc23)ccc1F the remaining activity was 103% (PRKAA1; enzyme activity, kinase profiling panel; 0.1 µM).
CCCOc1ccc(OC)c(F)c1C(=O)c1ccc(C(=O)N[C@@H]2CNC[C@H]2NC(=O)c2ccc3[nH]ncc3c2)cc1 gave a remaining activity of 1% (PRKAA1; kinase activity; 10 µM).
COc1cc(Cl)c(C(=O)N[C@@H](CN[C@H]2CC[C@@H](N)CC2)Cc2ccc(C#N)cc2)cc1-c1ccc(CN[C@H](C)c2ccc(C)cc2)o1 gave a remaining activity of 94% (PRKAA1; enzyme activity, KinaseProfiler panel; 1 µM).
The remaining activity of COc1cc(-c2cncc3c2CN(C)Cc2cc(N4CCNCC4)ccc2-3)cc(OC)c1OC is reported as 96% (PRKAA1; enzyme activity; 1 µM, with: 10 µM ATP; reference: DMSO).
For Cc1ccc(NC(=O)c2ccc(C)c(C(F)(F)F)c2)cc1C#Cc1nn(C2CCC(O)CC2)c2ncnc(N)c12 (stereo not shown), the remaining activity was 109% (PRKAA1; enzyme activity; 10 µM, with: ATP 10 µM).
With CC/C(=N\NC(=O)NCc1cccc(O)c1)c1ccc(O)c(C)c1O the inhibition was 11.4% (PRKAA1 with beta1, gamma1; kinase activity; 0.1 µM).
Cc1ccc(C(=O)NCc2ccsc2)cc1C#Cc1cn(C(C)C)c2ncnc(N)c12 has a remaining activity of 94% (PRKAA1; kinase activity; 1 µM, with: ATP at Km).
CC[C@@H]1[C@H](F)C(=O)N[C@@H]1COc1nccc2cc(C(N)=O)c(OC)cc12 has an inhibition of 4.2% (PRKAA1; ATP probe binding, KiNativ profiling, measured: ATP loop probe site; THP-1 cell lysate; 0.04 mM).
CCN(CC)c1ccc(C2=NNC(=O)CC2C)cc1[N+](=O)[O-] (stereo not shown) has a remaining activity of 110% (PRKAA1; kinase activity, inhibitor; 10 µM).
For COc1ccc2oc(-c3ccc4nc(N)oc4c3)c/c(=N\c3ccccc3NC(=O)CCN)c2c1, the remaining activity was 106% (PRKAA1; kinase activity; 1 µM; reference: untreated control).
For COc1cc2ncnc(Nc3ccc(Oc4ccccc4)cc3C)c2cc1OC, the inhibition was -1% (PRKAA1 with beta1, gamma1; kinase activity, inhibitor; 1 µM).
CN(C)C1CCN(CC#Cc2nn(C3CCCC3)c3nc(NCc4ccccc4)ncc23)C1 (stereo not shown) has an inhibition of 0% (PRKAA1 with beta1, gamma1; enzyme activity, inhibitor, Z'-LYTE; 100 nM).
With CC(C)c1ccc(NC(=O)c2cccs2)c(-c2nc3ccccc3[nH]c2=O)c1 the remaining activity was 113% (PRKAA1; kinase activity; 1 µM).
N#CC1(c2ccc(NC(=O)c3cccnc3NCc3ccncc3)cc2)CCCC1 — result for “phosphorylation fold change”: 3.71 fold (PRKAA1; phosphoproteomics; concentration not given; reference: untreated).
For COc1cccc(CN(CCN(CCN(C)C)Cc2ccccc2)Cc2ccccc2)c1, inhibition read “no inhibition” (PRKAA1; kinase activity, inhibitor; concentration not given).

A few entries again:
CC[C@@H]1[C@H](F)C(=O)N[C@@H]1COc1nccc2cc(C(N)=O)c(OC)cc12 has an inhibition of 4.2% (PRKAA1; ATP probe binding, KiNativ profiling, measured: ATP loop probe site; THP-1 cell lysate; 0.04 mM).
